Results from different studies.
Numbered parts are unrelated; each lists some results of a single study.

Study 1
Target: Interferon regulatory factor 5, full length, phosphomimetic (IRF5, Homo sapiens, UniProt Q13568-2, residues 1-514, K96S/S451D/S453D/S456D/S462D)
Method: protein-binding microarray
Molecule type: double-stranded DNA, one strand shown
Medium: in vitro
Concentration: 250 nM
Notes: 60-bp whole probe
With: salmon DNA 0.4 mg/ml
Baseline: random background probes
Direction: higher = stronger binding
All sequences stand within: GCCTAGCAC … GTCTTGATTCGCTTGACGCTGCTG
| Oligonucleotide | log fluorescence |
| --- | --- |
| GACGGTATCCTTTTCCTGAAGTGCTAG | 0.294 z-score |
| GACGATCTCAGTATAGAGACGTGCTAG | -0.114 z-score |
| GACGGTTTCCTTTCTCTGACGTGCTAG | 1.79 z-score |
| TCATAATTCTCTTTTCAACTGTGCTAG | 1.36 z-score |
| GACGGTATCGAGACTGGGGACGTGCTA | 1.16 z-score |
| CAGGTTTCTGATGGGCCTAGGTGCTAG | 0.906 z-score |

Study 2
Target: Histone acetyltransferase KAT6A, winged helix 1, GST fusion (KAT6A, Homo sapiens, UniProt Q92794, residues 1-85)
Method: protein binding microarray
Molecule type: double-stranded DNA, one strand shown
Medium: in vitro
Concentration: not given
Notes: 8-mer, flanks averaged, mean of 2 arrays, mostly near background
Baseline: not given
Direction: higher = stronger binding
Target sequence (chain): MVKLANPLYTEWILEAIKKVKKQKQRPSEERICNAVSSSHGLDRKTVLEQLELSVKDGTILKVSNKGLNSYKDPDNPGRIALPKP
| Oligonucleotide | E-score |
| --- | --- |
| TATAAGGA | -0.0592 |
| TCGCCACA | 0.0435 |
| CTTGTCAA | -0.0629 |
| CACGCCTG | -0.108 |
| CCCCTTCG | -0.0496 |

Study 3
Target: Centromere-binding protein 1, full length, His-tagged (CBF1, Saccharomyces cerevisiae, UniProt P17106, residues 1-351)
Sequence of UniProt P17106 (whole entry, looked up): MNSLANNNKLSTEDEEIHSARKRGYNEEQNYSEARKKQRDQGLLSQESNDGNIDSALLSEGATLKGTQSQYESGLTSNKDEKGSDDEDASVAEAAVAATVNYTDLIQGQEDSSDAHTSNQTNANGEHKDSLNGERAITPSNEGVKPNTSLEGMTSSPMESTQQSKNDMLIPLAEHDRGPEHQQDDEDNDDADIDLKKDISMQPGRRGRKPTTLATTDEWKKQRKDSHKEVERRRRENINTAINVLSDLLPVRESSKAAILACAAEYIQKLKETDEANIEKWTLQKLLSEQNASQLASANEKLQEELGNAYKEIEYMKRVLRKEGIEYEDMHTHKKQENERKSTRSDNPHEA
Method: competition protein-binding microarray
Molecule type: double-stranded DNA, one strand shown
Medium: in vitro
Concentration: 2 µM
Notes: whole 60-bp probe, lowest competitor level
With: Pho4 competitor, 0.05 µM
Direction: higher = stronger binding
| Oligonucleotide | fluorescence intensity [a.u.] |
| --- | --- |
| TCGGCTTGCAGATCGCACGCACTCAGAGTACGAAATGTCTTGATTCGCTTGACGCTGCTG | 78.4 |
| GATAGTGCTGTCTGGGGCGTGCGATATGCAAAGCTTGTCTTGATTCGCTTGACGCTGCTG | 58.5 |
| AGTTATCTAAGATTCGTCGTGCTTTAAGAGACTTGTGTCTTGATTCGCTTGACGCTGCTG | 62.6 |

Mixed results
| Substance | target | assay | system | setting | scale | quantity | result |
| --- | --- | --- | --- | --- | --- | --- | --- |
| PhoQ, residues 284 288 289 292 302 303 GLASVI | PhoP, residues 12 14 15 18 19 HLGGL (Escherichia coli, UniProt P23836) | Sort-seq, item: YFP reporter | E. coli | PhoQ-PhoP variant library, with: 10 µM Mg2+ | baseline: high Mg2+ state, higher = stronger signaling | fold induction | 1.33 |

A few entries again (study 1):
| Oligonucleotide | log fluorescence |
| --- | --- |
| GACGGTATCCTTTTCCTGAAGTGCTAG | 0.294 z-score |
